Measurements of several laboratories.
A part holds a random share of what one study measured. Changes are numbered by the printed parent chain.

Sample 1 — technique: DHFR PCA, deep sequencing; matrix: yeast; added: (+)-ABA 0 µM; relative to: wild-type fitted maximum; direction: higher = stronger binding
Target: ABI1, truncated, D143A, DHFR fusion (Arabidopsis thaliana)
Setting: methotrexate growth selection, single substitutions
Starting sequence: PYL1, truncated, DHFR fusion (Arabidopsis thaliana); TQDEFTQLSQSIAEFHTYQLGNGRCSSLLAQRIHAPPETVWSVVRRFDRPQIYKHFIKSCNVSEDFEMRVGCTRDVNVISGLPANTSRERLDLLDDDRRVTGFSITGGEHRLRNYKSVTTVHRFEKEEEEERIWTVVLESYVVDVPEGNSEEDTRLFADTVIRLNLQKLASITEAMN; partner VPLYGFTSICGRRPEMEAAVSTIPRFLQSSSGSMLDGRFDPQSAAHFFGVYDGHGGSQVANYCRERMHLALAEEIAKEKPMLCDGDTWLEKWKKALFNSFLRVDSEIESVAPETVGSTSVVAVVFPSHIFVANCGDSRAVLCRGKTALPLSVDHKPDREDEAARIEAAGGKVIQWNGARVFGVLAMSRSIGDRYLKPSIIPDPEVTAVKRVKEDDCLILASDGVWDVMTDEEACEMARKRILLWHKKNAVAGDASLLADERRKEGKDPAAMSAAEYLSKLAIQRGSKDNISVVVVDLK
Variant | relative binding score
D3C | 13%
T119N | -1.33%
L93F | 5.02%
S140A | 7.22%
I57F | -5.54%
Y18A | -0.218%
C25I | 58.4%
R163E | 6.21%
T86N | 11.6%
T120G | -9.49%
N61K | 52.6%
H110T | 44.8%
M176N | 2.29%
A170S | -4.22%
F56R | -1.02%
T1M | 27.6%
S104M | 2.68%
V142A | 15.4%
R99S | -1.42%
D96Y | 6.35%
Y18T | -1.45%
E152G | 0.999%
K126M | 51%
V145H | -17.7%
P146A | 22.7%

Sample 2 — technique: protein binding microarray; molecule type: double-stranded DNA, one strand shown; matrix: in vitro; tested at: not given; relative to: not given; direction: higher = stronger binding
Target: Histone acetyltransferase KAT6A, both winged helices, GST fusion (KAT6A, Homo sapiens, UniProt Q92794, residues 1-181)
Setting: 8-mer, flanks averaged, mean of 2 arrays, mostly near background
Construct (chain): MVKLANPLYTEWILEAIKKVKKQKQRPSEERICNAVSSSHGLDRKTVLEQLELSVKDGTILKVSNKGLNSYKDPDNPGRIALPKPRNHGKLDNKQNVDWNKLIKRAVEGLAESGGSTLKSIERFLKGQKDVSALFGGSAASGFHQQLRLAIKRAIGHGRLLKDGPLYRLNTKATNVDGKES
Oligonucleotide | E-score
CGCCAGTA | -0.00368
AGGATTGG | -0.161
GTTGCTCA | -0.196
CAATAGGC | -0.0915
ATTATTTG | 0.0233
CCCACGAC | -0.224
AAGATAAA | 0.00598
GAGATCTC | 0.0297
ACCAACTA | -0.112
AAAGCACG | -0.115
CTCCGGAG | 0.00663
TAATTCAA | 0.0067
CACGTATA | 0.0394
CTTTAAGC | -0.0488
CGTACTTA | 0.126
AGACGAGG | -0.192

Sample 3 — target: UBE2L6 UBC core domain (UniProt O14933); technique: yeast two-hybrid; matrix: yeast; setting: mostly zero background; relative to: not given; direction: higher = stronger interaction
B1: ANKIB1 RING domain (UniProt Q9P2G1); chain LSPGDLDTSLCDICMCSISVFEDPVDMPCGHDFCRGCWESFLNLKIQEGEAHNIFCPAYDCFQLVPVDIIE
B2: RNF175 RING domain (UniProt Q8N4F7); chain LPTRSLSDNICAVCGQKIIVELDEEGLIENTYQLSCNHVFHEFCIRGWCIVGKKQTCPYCKEKVDLKRMIS
B3: RNF32 RING domain (UniProt Q9H0A6); chain SLLQGDSVQPCPICKEEFELRPQVLLSCSHVFHKACLQAFEKFTNKKTCPLCRKNQYQTRVIH
B4: UBE4A RING domain (UniProt Q14139); chain LQQQEEETYADACDEFLDPIMSTLMCDPVVLPSSRVTVDRSTIARHLLSDQTDPFNRSPLTMDQIRPNTELKEKIQRWLAERKQQKEQLE
B5: TRIM15 RING domain (UniProt Q9C019); chain SLKVVHELPACTLCAGPLEDAVTIPCGHTFCRLCLPALSQMGAQSSGKILLCPLCQEEEQAETPMA
Residues (chain): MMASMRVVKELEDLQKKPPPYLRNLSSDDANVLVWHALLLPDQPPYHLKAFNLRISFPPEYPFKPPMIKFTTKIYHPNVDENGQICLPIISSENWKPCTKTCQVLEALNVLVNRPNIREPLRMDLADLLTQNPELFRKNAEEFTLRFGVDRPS
Molecule | lacZ reporter activity
B1 (ANKIB1 RING domain) | 0
KIKDLNEHIVCCLCAGYFVDATTITECLHTFCKSCIVKYLQTSKYCPMCNIKIHETQPLL (PCGF1 RING domain (UniProt Q9BSM1)) | 0
B2 (RNF175 RING domain) | 0
FLKKLEQSFMCVCCQELVYQPVTTECFHNVCKDCLQRSFKAQVFSCPACRHDLGQNYIMI (UHRF2 RING domain (UniProt Q96PU4)) | 0
B3 (RNF32 RING domain) | 0
ISNDSETLEECMVCSDMKRDTLFGPCGHIATCSLCSPRVKKCLICKEQVQSRTKIE (MIB1 RING domain (UniProt Q86YT6)) | 0
B4 (UBE4A RING domain) | 0
B5 (TRIM15 RING domain) | 0

Sample 4 — target: CCNB2, cyclin fold, Cln2 fusion (human); technique: yeast growth competition, sequencing; matrix: yeast; setting: weak parent motif; relative to: not given; direction: higher = stronger binding
Starting sequence: SLBP docking peptide (human); ARYKRKLLINDFG; partner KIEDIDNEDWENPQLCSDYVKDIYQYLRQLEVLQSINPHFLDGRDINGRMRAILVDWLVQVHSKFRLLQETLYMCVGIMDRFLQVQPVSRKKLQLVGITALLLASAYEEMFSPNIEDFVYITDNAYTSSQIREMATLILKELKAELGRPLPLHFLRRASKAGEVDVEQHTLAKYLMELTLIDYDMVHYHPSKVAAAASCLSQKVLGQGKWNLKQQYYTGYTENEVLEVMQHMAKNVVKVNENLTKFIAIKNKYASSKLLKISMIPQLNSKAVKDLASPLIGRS
Variant | normalised enrichment score
ARYKRKLTINDFG [L8T] | 0.583
ALYKRKLLINDFG [R2L] | 0.798
ARYKRKWLINDFG [L7W] | -0.044
ARYYRKLLINDFG [K4Y] | 0.192
ARYKRKFLINDFG [L7F] | 0.641
ARYKRKLLINDFP [G13P] | 0.796
ARYKRKLLINDFI [G13I] | 0.317
ARYKRKLLQNDFG [I9Q] | -0.187
ARYKRKLSINDFG [L8S] | 0.439
ARYKRMLLINDFG [K6M] | 0.359
ARYKRKLLINHFG [D11H] | 0.729
ARYKRKLLINDFD [G13D] | 0.0321
ARYKRKLLINDSG [F12S] | 0.518
AEYKRKLLINDFG [R2E] | 0.389
ARYKRKLLINDFW [G13W] | 0.244
ARYKCKLLINDFG [R5C] | 0.689
ARPKRKLLINDFG [Y3P] | 0.291
TRYKRKLLINDFG [A1T] | 1.34
ARYKWKLLINDFG [R5W] | -0.256
ARYKRKLLILDFG [N10L] | 0.888
ARYKRKLIINDFG [L8I] | 0.608
ARYKRALLINDFG [K6A] | 0.872
NRYKRKLLINDFG [A1N] | 0.649
AFYKRKLLINDFG [R2F] | 0.0968
AKYKRKLLINDFG [R2K] | 0.717

Sample 5 — technique: RNA Bind-n-Seq; molecule type: RNA; matrix: in vitro; tested at: 200 nM; setting: whole 134-nt RNA, ends assumed; added: 150 mM LiCl; relative to: input library; direction: higher = stronger binding; library: 7-deaza-guanosine replaces G
Target: Fragile X messenger ribonucleoprotein 1, C-terminal low-complexity region (Fmr1, Mus musculus, UniProt P35922)
Shared flanks, not repeated: GGGAGUUCUACAGUCCGACGAUC … UGGAAUUCUCGGGUGUCAAGG
Oligonucleotide | log2 enrichment
ACCAUGCAGGUGGGCAUCUUUGGGAAGUGGGGCAAGGGGGGGAUAGGGAGGGGGGUAACACUUUGGGAACAGGUGGUCCCAGGUCGCUUC | 1.48
CACAGACAACACAAACCCACACAGACACAGAGGGAAGGGGUUGGGAUGGGGACAGGGUGCACAGCAGGGCGGGGUAGGACCCCAGCCCCU | -0.0357
UCCUCAAGUCCUGUGCUACACAUCGUAUGUACCGAAUCGGAGGUGGUUUGGAAAGUAUUAUGUUACGCCGUUCGGAUCUGCACUUCCAGC | -1.48
UAACUUUAGAGGAGGAUCUGAGGGAUAUGGCAGUGGACGUGGAUUUGGGGAUGGCUAUAAUGGGUAUGGAGGAGGACCUGGAGGUGGCAA | 0.355
UAACUUUAGAGGAGGAUCUGAUGGAUAUGGCAGGGGACGUGGAUUUGGGGAUGGCUAUAAUGGGUAUGGAGGAGGACCUGGAGGUGGCAA | 0.462
CACAGACAACACGCACCCACACAGACACAGAGGGAAGGGGUUGGGAUGGGGACAGGGUGGACAGCAGGGCGGGGUAGGACCCCAGCCCCU | -1.52
UGGGAGGUGGAUUUUGUUUAUUUUUUUAGCUCAUUUCCAGGGGUGGGAAUUUUUUUUUGAUAUGUGUCAUGAAUAAAGUUGUUUUUGAAA | -0.691
CCUGUGCUACACAUCGUAUGUACCGAAUCGGCCCCCCGGGCCCCCCGGGGCCCCCCGGGGAAAGUAUUAUGUUACGCCGUUCGGAUCUGC | -2.86

Repeated from above (sample 1):
Variant | relative binding score
F56R | -1.02%
T1M | 27.6%
S104M | 2.68%
V142A | 15.4%
R99S | -1.42%
D96Y | 6.35%
Y18T | -1.45%
